Experimental data of several laboratories.
Parts stem from different laboratories: compare values within a part only. Substitutions count along the parent as printed.

Study 1 — technique: RNA Bind-n-Seq; form: RNA; matrix: in vitro; tested at: 1 µM; setting: whole 134-nt RNA, ends assumed; with: 150 mM KCl; baseline: input library; direction: higher = stronger binding
Target: Ras GTPase-activating protein-binding protein 1, C-terminal RGG region (G3BP1, Homo sapiens, UniProt Q13283)
UniProt Q13283, sequence (whole entry, looked up): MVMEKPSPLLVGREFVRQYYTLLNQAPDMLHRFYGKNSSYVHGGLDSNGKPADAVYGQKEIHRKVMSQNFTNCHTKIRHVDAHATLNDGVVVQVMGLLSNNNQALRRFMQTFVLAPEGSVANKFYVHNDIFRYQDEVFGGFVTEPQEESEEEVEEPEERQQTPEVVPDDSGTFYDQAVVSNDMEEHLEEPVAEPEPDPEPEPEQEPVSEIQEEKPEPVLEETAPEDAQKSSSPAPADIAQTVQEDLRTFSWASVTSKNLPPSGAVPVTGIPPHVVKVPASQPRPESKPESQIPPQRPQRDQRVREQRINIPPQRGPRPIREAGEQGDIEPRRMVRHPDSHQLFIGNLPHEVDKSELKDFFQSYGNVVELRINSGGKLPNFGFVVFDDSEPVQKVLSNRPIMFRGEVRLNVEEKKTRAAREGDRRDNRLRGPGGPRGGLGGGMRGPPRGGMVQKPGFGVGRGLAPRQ
Constant ends, left off below: GGGAGUUCUACAGUCCGACGAUC … UGGAAUUCUCGGGUGUCAAGG
Strand | log2 enrichment
AAGUCCUGUGCUACACAUCGUAUGUACCGAAUCGGCCCGGGGCCCGGGGCCCGGGGAAAGUAUUAUGUUACGCCGUUCGGAUCUGCACUU | -2.29
CAAGUCCUGUGCUACACAUCGUAUGUACCGAAUCGGCCCGGGCCCGGGGCCCGGGAAAGUAUUAUGUUACGCCGUUCGGAUCUGCACUUC | -1.98
GUCCUGUGCUACACAUCGUAUGUACCGAAUCGGGGUUUUUGGUUUUUGGUUUUUGGGGAAAGUAUUAUGUUACGCCGUUCGGAUCUGCAC | -1.29
UCCUGUGCUACACAUCGUAUGUACCGAAUCGGGAAAAAGGGAAAAAAAGGGUUUUUGGGAAAGUAUUAUGUUACGCCGUUCGGAUCUGCA | -0.586
UCCUGUGCUACACAUCGUAUGUACCGAAUCAAACCCCCAAAUUUUUAAAUUUUUUUAAAAAAGUAUUAUGUUACGCCGUUCGGAUCUGCA | -0.566
CUCAAGUCCUGUGCUACACAUCGUAUGUACCGAAUCGGGGUUGGUUGGGGUUGGAAAGUAUUAUGUUACGCCGUUCGGAUCUGCACUUCC | -0.527
GCGGGAAGUAAAAACAAAUGGAAAUGCUUCGGAUAGUGGCAGGGGUGGGGGUUGCUAAGGAAAGGGUGGGAUGGGAGUGGGUAAAGAGUU | 1.26

Study 2 — target: CCNB3, cyclin fold, Cln2 fusion (human); technique: yeast growth competition, sequencing; matrix: yeast; setting: weak parent motif; baseline: not given; direction: higher = stronger binding
Starting sequence: CDKN1A docking peptide (human); SKACRRLFGPVDS; partner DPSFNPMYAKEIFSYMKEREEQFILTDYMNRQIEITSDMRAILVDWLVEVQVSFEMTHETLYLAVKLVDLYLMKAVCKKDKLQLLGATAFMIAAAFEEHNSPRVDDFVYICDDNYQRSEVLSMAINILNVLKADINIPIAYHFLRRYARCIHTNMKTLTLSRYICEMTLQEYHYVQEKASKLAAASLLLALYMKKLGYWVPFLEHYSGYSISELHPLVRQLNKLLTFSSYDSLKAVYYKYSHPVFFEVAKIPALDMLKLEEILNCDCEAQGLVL
Change | normalised enrichment score
SKACRILFGPVDS [R6I] | 0.353
SKACRRLFQPVDS [G9Q] | 0.552
SKACRRCFGPVDS [L7C] | 0.283
SKACFRLFGPVDS [R5F] | 0.245

Study 3 — technique: protein binding microarray; form: double-stranded DNA, one strand shown; matrix: in vitro; tested at: not given; baseline: not given; direction: higher = stronger binding
Target: Histone acetyltransferase KAT6A, both winged helices, GST fusion (KAT6A, Homo sapiens, UniProt Q92794, residues 1-181)
Setting: 8-mer, flanks averaged, mean of 2 arrays, mostly near background
Target sequence (chain): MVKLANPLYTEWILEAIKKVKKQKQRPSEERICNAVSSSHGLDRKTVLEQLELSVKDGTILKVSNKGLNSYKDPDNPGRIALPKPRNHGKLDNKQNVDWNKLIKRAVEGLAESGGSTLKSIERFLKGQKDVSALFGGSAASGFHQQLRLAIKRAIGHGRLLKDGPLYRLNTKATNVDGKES
Strand | E-score
CATGCTCG | -0.0169
AATGACAA | -0.229
AATCAGAT | -0.134
CAGATCAC | -0.0374
ATGGTTCC | 0.03
CAAGCTTG | 0.0305
AAGGTAAG | -0.115
GGGTGCTA | -0.105
AAGCTCTG | -0.149

Further values, each from its own experiment
Molecule | target | test | system | conditions | scale | measurement | value
PhoQ, residues 284 288 289 292 302 303 NLGVHL | PhoP, residues 12 14 15 18 19 LHHVQ (Escherichia coli, UniProt P23836) | Sort-seq, item: YFP reporter | E. coli | PhoQ-PhoP variant library, with: 10 µM Mg2+ | baseline: high Mg2+ state, higher = stronger signaling | fold induction | 0.439

A few entries again (study 3):
Strand | E-score
ATGGTTCC | 0.03
